Published values collected from several papers.
Each numbered part is a random draw from the data of one study; scales do not carry over between parts. Values joined by “and” are separate records of one study, mostly repeats; a detail may differ.
UniProt Q8NG66, sequence (whole entry, looked up): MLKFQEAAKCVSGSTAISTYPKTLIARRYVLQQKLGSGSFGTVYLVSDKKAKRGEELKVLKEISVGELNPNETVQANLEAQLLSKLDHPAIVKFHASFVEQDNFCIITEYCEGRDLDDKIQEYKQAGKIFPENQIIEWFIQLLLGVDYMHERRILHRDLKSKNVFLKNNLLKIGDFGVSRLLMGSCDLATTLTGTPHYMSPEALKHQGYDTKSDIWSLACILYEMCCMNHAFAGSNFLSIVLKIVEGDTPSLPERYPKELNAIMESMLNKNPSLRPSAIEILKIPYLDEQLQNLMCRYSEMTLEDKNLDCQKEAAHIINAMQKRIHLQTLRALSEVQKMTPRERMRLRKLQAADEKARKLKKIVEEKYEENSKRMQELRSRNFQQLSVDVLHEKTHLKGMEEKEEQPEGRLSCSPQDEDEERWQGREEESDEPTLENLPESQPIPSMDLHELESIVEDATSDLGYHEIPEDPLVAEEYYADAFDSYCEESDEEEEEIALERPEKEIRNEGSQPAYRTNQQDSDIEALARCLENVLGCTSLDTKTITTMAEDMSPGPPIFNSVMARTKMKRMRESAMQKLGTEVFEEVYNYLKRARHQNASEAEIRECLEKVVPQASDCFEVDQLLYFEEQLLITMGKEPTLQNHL
UniProt P31749, sequence (whole entry, looked up): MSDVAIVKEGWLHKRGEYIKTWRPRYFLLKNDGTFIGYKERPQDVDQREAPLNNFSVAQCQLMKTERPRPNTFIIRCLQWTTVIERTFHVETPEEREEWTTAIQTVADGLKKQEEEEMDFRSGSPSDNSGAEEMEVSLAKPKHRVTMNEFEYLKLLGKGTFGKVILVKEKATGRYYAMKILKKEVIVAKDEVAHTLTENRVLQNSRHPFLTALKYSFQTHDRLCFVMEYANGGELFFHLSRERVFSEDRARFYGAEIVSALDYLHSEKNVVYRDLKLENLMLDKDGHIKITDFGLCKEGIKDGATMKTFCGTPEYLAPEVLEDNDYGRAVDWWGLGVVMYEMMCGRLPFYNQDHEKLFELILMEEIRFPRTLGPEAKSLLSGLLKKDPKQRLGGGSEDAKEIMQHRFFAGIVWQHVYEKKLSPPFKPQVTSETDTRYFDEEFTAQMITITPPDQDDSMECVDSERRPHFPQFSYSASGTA
UniProt Q9H2K8, sequence (whole entry, looked up): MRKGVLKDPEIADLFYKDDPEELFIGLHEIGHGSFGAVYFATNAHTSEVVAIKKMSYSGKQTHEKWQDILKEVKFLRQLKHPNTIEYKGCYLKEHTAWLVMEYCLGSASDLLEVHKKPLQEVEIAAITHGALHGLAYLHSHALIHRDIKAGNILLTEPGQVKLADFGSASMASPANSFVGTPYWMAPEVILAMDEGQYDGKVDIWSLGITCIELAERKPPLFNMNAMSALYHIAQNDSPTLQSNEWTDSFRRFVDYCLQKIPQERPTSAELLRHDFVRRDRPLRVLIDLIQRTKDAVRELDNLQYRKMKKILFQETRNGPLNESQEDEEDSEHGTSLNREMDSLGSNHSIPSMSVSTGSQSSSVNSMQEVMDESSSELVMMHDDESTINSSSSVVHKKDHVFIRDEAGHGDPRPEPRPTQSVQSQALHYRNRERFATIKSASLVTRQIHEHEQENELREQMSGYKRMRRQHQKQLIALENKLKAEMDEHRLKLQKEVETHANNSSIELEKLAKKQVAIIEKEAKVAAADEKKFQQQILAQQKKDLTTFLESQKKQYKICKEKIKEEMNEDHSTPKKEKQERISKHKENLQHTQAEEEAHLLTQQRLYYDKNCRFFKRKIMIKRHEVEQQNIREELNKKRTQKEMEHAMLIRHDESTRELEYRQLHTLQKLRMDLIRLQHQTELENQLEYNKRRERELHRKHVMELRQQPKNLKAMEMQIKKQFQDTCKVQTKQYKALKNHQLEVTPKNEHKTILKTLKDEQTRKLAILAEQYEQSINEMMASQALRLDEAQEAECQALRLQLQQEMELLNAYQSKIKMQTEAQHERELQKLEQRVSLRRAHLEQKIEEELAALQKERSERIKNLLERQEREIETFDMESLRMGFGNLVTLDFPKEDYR
UniProt Q00526, sequence (whole entry, looked up): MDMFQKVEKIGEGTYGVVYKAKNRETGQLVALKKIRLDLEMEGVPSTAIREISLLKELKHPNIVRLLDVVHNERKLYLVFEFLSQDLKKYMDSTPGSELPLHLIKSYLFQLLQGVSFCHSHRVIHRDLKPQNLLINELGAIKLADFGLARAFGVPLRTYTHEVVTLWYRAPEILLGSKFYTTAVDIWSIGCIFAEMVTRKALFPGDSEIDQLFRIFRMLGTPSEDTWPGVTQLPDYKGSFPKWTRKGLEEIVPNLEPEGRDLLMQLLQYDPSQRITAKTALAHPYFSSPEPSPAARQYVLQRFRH
UniProt Q07912, sequence (whole entry, looked up): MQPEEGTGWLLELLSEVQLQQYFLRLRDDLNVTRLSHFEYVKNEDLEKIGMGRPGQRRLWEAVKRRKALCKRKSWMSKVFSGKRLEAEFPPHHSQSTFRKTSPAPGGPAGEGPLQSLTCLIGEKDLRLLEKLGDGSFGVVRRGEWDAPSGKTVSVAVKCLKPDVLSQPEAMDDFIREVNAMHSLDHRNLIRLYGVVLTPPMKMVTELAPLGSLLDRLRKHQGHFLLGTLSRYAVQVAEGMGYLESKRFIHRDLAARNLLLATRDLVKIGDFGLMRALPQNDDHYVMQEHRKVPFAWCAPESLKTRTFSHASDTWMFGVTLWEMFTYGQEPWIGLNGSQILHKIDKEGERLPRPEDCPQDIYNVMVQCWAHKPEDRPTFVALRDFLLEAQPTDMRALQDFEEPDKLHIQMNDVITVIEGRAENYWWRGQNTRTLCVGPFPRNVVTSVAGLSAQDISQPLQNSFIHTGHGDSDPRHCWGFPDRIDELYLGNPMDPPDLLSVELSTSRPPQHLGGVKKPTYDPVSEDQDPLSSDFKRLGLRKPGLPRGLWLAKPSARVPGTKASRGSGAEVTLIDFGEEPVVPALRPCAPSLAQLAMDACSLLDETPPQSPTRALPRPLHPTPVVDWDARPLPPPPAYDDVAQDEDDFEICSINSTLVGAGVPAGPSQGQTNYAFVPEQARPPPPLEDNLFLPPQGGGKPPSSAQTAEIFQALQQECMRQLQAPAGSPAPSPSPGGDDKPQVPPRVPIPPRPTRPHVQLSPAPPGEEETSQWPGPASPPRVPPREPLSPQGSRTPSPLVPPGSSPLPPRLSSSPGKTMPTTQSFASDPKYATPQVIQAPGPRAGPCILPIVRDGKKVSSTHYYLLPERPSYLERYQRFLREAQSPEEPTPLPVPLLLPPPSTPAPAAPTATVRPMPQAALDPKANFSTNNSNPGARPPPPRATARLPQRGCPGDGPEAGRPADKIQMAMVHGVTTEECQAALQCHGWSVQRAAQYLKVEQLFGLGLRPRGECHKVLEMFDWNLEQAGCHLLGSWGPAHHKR
UniProt Q6ZWH5, sequence (whole entry, looked up): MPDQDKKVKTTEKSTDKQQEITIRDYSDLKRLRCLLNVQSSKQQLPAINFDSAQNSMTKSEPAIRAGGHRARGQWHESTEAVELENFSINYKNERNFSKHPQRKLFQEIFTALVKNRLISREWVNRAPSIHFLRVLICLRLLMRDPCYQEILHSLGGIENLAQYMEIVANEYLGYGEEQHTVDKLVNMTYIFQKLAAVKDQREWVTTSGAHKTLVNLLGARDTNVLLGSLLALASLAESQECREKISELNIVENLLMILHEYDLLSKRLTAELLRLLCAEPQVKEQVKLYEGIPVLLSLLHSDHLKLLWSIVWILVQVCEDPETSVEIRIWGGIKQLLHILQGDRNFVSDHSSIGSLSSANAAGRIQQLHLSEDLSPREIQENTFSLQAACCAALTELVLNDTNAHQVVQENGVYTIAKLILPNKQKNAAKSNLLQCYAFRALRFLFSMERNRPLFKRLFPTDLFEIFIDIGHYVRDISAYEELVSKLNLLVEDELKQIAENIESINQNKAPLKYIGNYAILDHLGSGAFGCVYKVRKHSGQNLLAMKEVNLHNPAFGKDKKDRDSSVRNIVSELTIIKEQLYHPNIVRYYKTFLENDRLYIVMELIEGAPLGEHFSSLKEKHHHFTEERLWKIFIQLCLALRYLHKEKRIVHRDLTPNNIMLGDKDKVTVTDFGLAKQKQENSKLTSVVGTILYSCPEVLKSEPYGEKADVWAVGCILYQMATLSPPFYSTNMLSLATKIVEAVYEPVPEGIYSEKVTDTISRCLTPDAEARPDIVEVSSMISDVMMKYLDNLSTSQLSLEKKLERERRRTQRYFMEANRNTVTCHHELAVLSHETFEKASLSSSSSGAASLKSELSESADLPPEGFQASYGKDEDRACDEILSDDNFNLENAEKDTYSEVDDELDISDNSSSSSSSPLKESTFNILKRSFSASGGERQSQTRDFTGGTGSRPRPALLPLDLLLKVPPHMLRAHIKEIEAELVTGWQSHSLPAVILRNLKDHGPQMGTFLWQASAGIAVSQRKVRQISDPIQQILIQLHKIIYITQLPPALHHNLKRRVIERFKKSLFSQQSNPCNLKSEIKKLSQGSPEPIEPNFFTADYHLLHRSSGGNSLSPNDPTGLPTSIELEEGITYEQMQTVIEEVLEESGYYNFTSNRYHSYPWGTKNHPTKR
UniProt Q13188, sequence (whole entry, looked up): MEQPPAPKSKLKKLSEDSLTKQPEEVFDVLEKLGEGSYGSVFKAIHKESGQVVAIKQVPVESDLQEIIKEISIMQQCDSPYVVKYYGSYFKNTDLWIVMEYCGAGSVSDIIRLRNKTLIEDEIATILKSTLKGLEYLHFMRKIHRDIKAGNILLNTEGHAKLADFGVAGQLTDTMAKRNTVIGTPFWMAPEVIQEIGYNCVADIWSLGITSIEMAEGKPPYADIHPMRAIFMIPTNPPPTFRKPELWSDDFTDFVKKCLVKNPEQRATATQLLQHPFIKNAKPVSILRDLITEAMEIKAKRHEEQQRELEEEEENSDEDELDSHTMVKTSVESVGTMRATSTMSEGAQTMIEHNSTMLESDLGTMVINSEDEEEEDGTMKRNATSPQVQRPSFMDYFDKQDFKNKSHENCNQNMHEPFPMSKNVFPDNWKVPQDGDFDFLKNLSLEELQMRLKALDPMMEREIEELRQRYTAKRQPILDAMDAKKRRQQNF

Block 1
SMILES: CC(=O)N[C@@H](Cc1c[nH]c2ccccc12)C(=O)N[C@@H](CCC(=O)C=[N+]=[N-])C(=O)OC(C)C
Dose: dose not given
Baseline: vehicle
metabolomics, measured: ribulose/xylulose 5-phosphate; mouse, EL4 tumour — “log2 fold change”: 1.58.
For measured: N-acetylglutamine; mouse, EL4 tumour-bearing, EL4 tumour: “log2 fold change” read 0.0529.
For measured: 2-isopropylmalate; mouse, EL4 tumour-bearing, EL4 tumour: “log2 fold change” read 0.931.
The “log2 fold change” was 0.401 (metabolomics, measured: ascorbic acid 3-sulfate; mouse, EL4 tumour).
The “log2 fold change” was 0.612 (measured: oxalate; mouse, EL4 tumour, tumour).
For measured: 4-methyl-2-oxopentanoate; mouse, EL4 tumour-bearing, EL4 tumour: “log2 fold change” read 1.45.
The “log2 fold change” was -0.344 (measured: ascorbate; mouse, EL4 tumour, tumour).
For measured: pantothenate; mouse, EL4 tumour, tumour: “log2 fold change” read -0.476.
For measured: glucose; mouse, EL4 tumour-bearing, EL4 tumour: “log2 fold change” read 2.07.
For measured: homoserine; mouse, EL4 tumour-bearing, EL4 tumour: “log2 fold change” read -0.705.

Block 2
SMILES: O=C(Nc1ccc(Oc2ccc(F)cc2)cc1)N1CCc2ncccc2[C@H]1c1ccc(F)cc1
Effect on: cell-free assay
Technique: competition with immobilised ligand
Tested at: 1 µM
For CIT (Homo sapiens, UniProt O14578): remaining binding read 91%.
The remaining binding was 96% (HIPK1 (Homo sapiens, UniProt Q86Z02)).
For KIT (Homo sapiens, UniProt P10721, L576P): remaining binding read 100%.
The remaining binding was 99% (TNK2 (Homo sapiens, UniProt Q07912)).
For PLK2 (Homo sapiens, UniProt Q9NYY3): remaining binding read 100%.
The remaining binding was 95% (PIKFYVE (Homo sapiens, UniProt Q9Y2I7)).
The remaining binding was 97% (CSNK1A1 (Homo sapiens, UniProt P48729)).
For Ribosomal protein S6 kinase alpha-2, C-terminal kinase domain (RPS6KA2, Homo sapiens, UniProt Q15349): remaining binding read 94%.
The remaining binding was 100% (YES1 (Homo sapiens, UniProt P07947)).
The remaining binding was 51% (Tyrosine-protein kinase ABL1, phosphorylated (ABL1, Homo sapiens, UniProt P00519, M351T)).
It gave 93% for remaining binding (DCLK3 (Homo sapiens, UniProt Q9C098)).
The remaining binding was 100% (ROCK1 (Homo sapiens, UniProt Q13464)).
For NEK11 (Homo sapiens, UniProt Q8NG66): remaining binding read 100%.
For STK3 (Homo sapiens, UniProt Q13188): remaining binding read 94%.
For Tyrosine-protein kinase ABL1, non-phosphorylated (ABL1, Homo sapiens, UniProt P00519): remaining binding read 100%.
It gave 95% for remaining binding (DYRK1A (Homo sapiens, UniProt Q13627)).
The remaining binding was 91% (PRKG1 (Homo sapiens, UniProt Q13976)).
For NEK10 (Homo sapiens, UniProt Q6ZWH5): remaining binding read 100%.

Block 3
Cell line: mouse MPNST tumor cells
Technique: high-content immunofluorescence imaging
Measured: nuclear SOX9
Tested at: 10 µM
Time: 12 h
Notes: mean of 2 replicates
Baseline: DMSO control
Reading: higher = more nuclear SOX9
`NS(=O)(=O)c1cc(C(=O)O)c(NCc2ccco2)cc1Cl` — result for “nuclear SOX9 intensity”: 100 % of DMSO and 82.5 % of DMSO.
`O=C(O)CCCCN(CCc1ccccc1OCc1ccc(CCc2ccccc2)cc1)Cc1ccc(C(=O)O)cc1` — result for “nuclear SOX9 intensity”: 99.3 % of DMSO.
For `C[N+](C)(CCOc1ccccc1)Cc1ccccc1.O=C([O-])c1cc2ccccc2cc1O`, “nuclear SOX9 intensity” read 85.6 % of DMSO.
Under “nuclear SOX9 intensity”, `CCOC(=O)[C@@](C)(N)Cc1ccc(O)c(O)c1` is recorded as 94.4 % of DMSO.
For `O=Nc1c(O)[nH]c2c(Cl)c(Cl)ccc12`, “nuclear SOX9 intensity” read 96.4 % of DMSO.
Under “nuclear SOX9 intensity”, `COc1ccc2cccc(N3CCN(CCNC(=O)c4ccc(F)cc4)CC3)c2c1` is recorded as 207 % of DMSO.
Under “nuclear SOX9 intensity”, `CCN(CC)C(=S)S` is recorded as 90.3 % of DMSO.
`C#C[C@]1(O)CC[C@H]2[C@@H]3CCC4=C(CCC(=O)C4)[C@H]3CC[C@@]21C`: “nuclear SOX9 intensity” 103 % of DMSO.
`CNC(=O)c1cccc(NC(=O)N2CCC(Oc3ccccc3Cl)CC2)c1` — result for “nuclear SOX9 intensity”: 107 % of DMSO.
`O=c1[nH]c(=O)n([C@H]2C[C@H](O)[C@@H](CO)O2)cc1I` — result for “nuclear SOX9 intensity”: 98.1 % of DMSO.
Under “nuclear SOX9 intensity”, `CC(Oc1ccccc1)C(=O)N[C@@H]1C(=O)N2[C@@H]1SC(C)(C)[C@@H]2C(=O)O` (some centres unmarked) is recorded as 95.7 % of DMSO.
`COCCN1CCC(C(=O)NO)(S(=O)(=O)c2ccc(Oc3ccc(OC(F)(F)F)cc3)cc2)CC1` — result for “nuclear SOX9 intensity”: 97.4 % of DMSO.

Block 4
Compound: CSc1nc(-c2ccnc(N[C@@H](C)c3ccccc3)c2)c(-c2ccc(F)cc2)[nH]1 (racemic)
Effect on: enzyme activity
Action: inhibitor
Tested at: 0.5 µM
Baseline: control
PKN1 (Homo sapiens, UniProt Q16512) — remaining activity: 105%.
For AKT1 (Homo sapiens, UniProt P31749): remaining activity read 101%.
It gave 103% for remaining activity (LIM domain kinase 1 (LIMK1, Homo sapiens, UniProt P53667)).
For FGR (Homo sapiens, UniProt P09769): remaining activity read 88.1%.
FER (Homo sapiens, UniProt P16591) — remaining activity: 97.2%.
The remaining activity was 108% (NEK11 (Homo sapiens, UniProt Q8NG66)).
For Cyclin-dependent kinase 3, with cyclin E (CDK3, Homo sapiens, UniProt Q00526): remaining activity read 85.3%.
NLK (Homo sapiens, UniProt Q9UBE8) — remaining activity: 30.7%.
The remaining activity was 91.7% (TAOK3 (Homo sapiens, UniProt Q9H2K8)).
For FLT4 (Homo sapiens, UniProt P35916): remaining activity read 91.3%.
It gave 93.3% for remaining activity (ALK (Homo sapiens, UniProt Q9UM73)).
It gave 95.7% for remaining activity (PASK (Homo sapiens, UniProt Q96RG2)).
CDC42BPA (Homo sapiens, UniProt Q5VT25) — remaining activity: 97.5%.

Some of these lines once more (block 3):
For `O=Nc1c(O)[nH]c2c(Cl)c(Cl)ccc12`, “nuclear SOX9 intensity” read 96.4 % of DMSO.
Under “nuclear SOX9 intensity”, `COc1ccc2cccc(N3CCN(CCNC(=O)c4ccc(F)cc4)CC3)c2c1` is recorded as 207 % of DMSO.
Under “nuclear SOX9 intensity”, `CCN(CC)C(=S)S` is recorded as 90.3 % of DMSO.
`C#C[C@]1(O)CC[C@H]2[C@@H]3CCC4=C(CCC(=O)C4)[C@H]3CC[C@@]21C`: “nuclear SOX9 intensity” 103 % of DMSO.
`CNC(=O)c1cccc(NC(=O)N2CCC(Oc3ccccc3Cl)CC2)c1` — result for “nuclear SOX9 intensity”: 107 % of DMSO.
`O=c1[nH]c(=O)n([C@H]2C[C@H](O)[C@@H](CO)O2)cc1I` — result for “nuclear SOX9 intensity”: 98.1 % of DMSO.
Under “nuclear SOX9 intensity”, `CC(Oc1ccccc1)C(=O)N[C@@H]1C(=O)N2[C@@H]1SC(C)(C)[C@@H]2C(=O)O` (some centres unmarked) is recorded as 95.7 % of DMSO.
